Published values pooled from the literature.
Compare with care: the assays were run in different laboratories. Values joined by “and” are separate records of one study, mostly repeats; a detail may differ. Numbers after ± are the reported error.
UniProt P20813, sequence (whole entry, looked up): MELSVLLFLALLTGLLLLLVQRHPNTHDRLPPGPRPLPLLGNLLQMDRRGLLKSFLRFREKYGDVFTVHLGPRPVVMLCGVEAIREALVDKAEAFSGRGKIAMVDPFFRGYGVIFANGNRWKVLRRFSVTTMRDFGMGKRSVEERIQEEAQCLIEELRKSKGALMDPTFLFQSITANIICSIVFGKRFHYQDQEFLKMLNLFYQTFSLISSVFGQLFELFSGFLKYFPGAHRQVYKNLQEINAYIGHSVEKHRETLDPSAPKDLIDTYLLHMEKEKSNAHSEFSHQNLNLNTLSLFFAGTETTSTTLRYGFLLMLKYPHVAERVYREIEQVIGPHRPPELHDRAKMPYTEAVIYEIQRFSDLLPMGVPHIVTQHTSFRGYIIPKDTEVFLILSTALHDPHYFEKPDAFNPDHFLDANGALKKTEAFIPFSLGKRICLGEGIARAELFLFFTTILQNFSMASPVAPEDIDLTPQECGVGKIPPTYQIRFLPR
UniProt P02769, sequence (whole entry, looked up): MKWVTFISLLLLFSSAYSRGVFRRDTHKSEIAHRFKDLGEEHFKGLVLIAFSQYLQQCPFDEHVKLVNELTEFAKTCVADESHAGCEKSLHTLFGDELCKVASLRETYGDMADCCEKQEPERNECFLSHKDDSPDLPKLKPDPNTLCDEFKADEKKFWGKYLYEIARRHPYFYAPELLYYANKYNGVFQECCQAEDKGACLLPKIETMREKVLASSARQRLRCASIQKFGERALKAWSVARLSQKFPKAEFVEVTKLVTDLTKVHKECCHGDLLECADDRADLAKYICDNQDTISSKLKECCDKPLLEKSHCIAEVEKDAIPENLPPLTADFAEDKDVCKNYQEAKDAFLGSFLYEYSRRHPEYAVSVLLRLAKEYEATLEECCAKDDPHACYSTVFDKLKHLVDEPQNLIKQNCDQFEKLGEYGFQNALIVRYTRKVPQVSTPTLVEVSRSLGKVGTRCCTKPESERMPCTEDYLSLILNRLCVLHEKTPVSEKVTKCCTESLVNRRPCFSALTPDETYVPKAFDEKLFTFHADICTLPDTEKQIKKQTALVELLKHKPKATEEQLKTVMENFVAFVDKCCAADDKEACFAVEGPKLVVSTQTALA

CC(C)Cc1ccc(C(C)C(=O)N[C@@H](CCCCNC(=O)CCOCCOCCOCCOCCOCCOCCNC(=O)CN2CCN(CC(=O)[O-])CCN(CC(=O)[O-])CCN(CC(=O)[O-])CC2)C(=O)Nc2cccc3c(C(=O)NCC(=O)N4CC(F)(F)C[C@H]4C#N)ccnc23)cc1.[177Lu+3] (stereo partly drawn)  tracer uptake (U-87 MG tumour model; host not given, pancreas; 24 h, tumour-bearing): 1.29 %ID/g
C/C(N)=N/C(=N\S(=O)(=O)c1ccc(C(F)(F)F)cc1)N1C[C@H](c2ccccc2)C(c2ccc(Cl)cc2)=N1  AUC(0-inf) (C57BL/6 mouse male, adipose tissue; intravenous, 10 mg/kg): 59300 ng·h/mL
CN(C)c1ccc2c(c1)C(C)(C)c1cc(N(C)C)ccc1C21OC(=O)c2ccc(C(=O)O)cc21  Kd (Albumin (ALB, Bos taurus, UniProt P02769); binding, fluorescence titration; PBS): 51 ± 5 µM
CC(C)OCCOCc1ccc(OCC(O)CN(N=O)C(C)C)cc1 (stereo not drawn)  revertant fold increase (Salmonella typhimurium; Ames test; TA1535; 500 µg/plate, 30 % rat S9; reference: solvent control): 1.2 fold
CNC(=O)C1CCCN(C(=O)C2CC3CCC2N3C(=O)[C@@H]2C[C@@H](O)CN2C(=O)NCc2cccc(Cl)c2F)C1 (mixture of isomers)  remaining activity (Cytochrome P450 2B6 (CYP2B6, Homo sapiens, UniProt P20813); preincubation without NADPH; human; 5.56 µM; reference: negative control): 105% and 100% and 110%
Nc1nc2cc(C(=O)c3ccc(F)cc3)ccc2[nH]1  revertants (Salmonella typhimurium; Ames preincubation test; TA98; 78.0 µg/plate, without S9): 21 revertants/plate
Nc1nc(-c2ccccc2)nc2[nH]nc(Nc3cccc(Cl)c3)c12  CC50 (HeLa Ohio; 72 h): > 148 µM
CCN(CC)CC#CCNc1ccnc2cc(Cl)ccc12  revertants (Salmonella typhimurium; mini-Ames test; TA102; 500.0 µg/well, without S9): 72 revertants/well and 69 revertants/well
O=C(Nc1cnccc1-c1ccc([18F])nc1)c1ccnc(NC(=O)C2CC2)c1  mean SUV (ex vivo gamma counting; FVB/NJ mice, both sexes, brain stem; intravenous, 120 min): 0.024
CN(Cc1ccccc1)C(=O)CN1CCN(CC(=O)[O-])CCN(CC(=O)[O-])CC1.[44Sc+3]  tracer uptake (mouse, blood; intravenous, 1 h): 3.22 %ID/g
CNc1nc(-c2ccccc2)nc2[nH]nc(Nc3ccc(F)cc3)c12  CC50 (HeLa Ohio; 72 h): 70.9 µM
COc1cccc(OC)c1-c1cc(C(=O)NC2(C(=O)O)C3CC4CC(C3)CC2C4)nn1-c1ccc(C(=O)N(C)CCOCCOCCN(C)C(=O)[C@H](CCCCNC(=O)[C@H](CC(C)C)NC(=O)C2OC2C(=O)O)NC(=O)CN2CCN(CC(=O)[O-])CCN(CC(=O)[O-])CCN(CC(=O)[O-])CC2)cc1C(C)C.[177Lu+3] (mixture of isomers)  tracer uptake (HT-29 tumour model; host not given, blood; 4 h, tumour-bearing): 3.3 %ID/g
Nc1nc(-c2ccc(C(F)(F)F)cc2)nc2[nH]nc(Nc3ccc(F)cc3)c12  CC50 (HeLa Ohio; 72 h): 2.6 µM
OC(Cc1cc(-c2ccc(C(O)C(F)(F)F)s2)sc1-c1ccc(-c2sc(-c3ccc(C(O)C(F)(F)F)s3)cc2CC(O)C(F)(F)F)s1)C(F)(F)F (stereo not drawn)  amount in extracellular wash (primary human fetal neurons; LC-MS/MS; 4 µM, 120 min, replicate 3): 0.01 nmol and 0.02 nmol
O=C1C2CC3CC1CC(C(=O)N1CCN(c4ccc([N+](=O)[O-])c5ncccc45)CC1)(C3)C2  revertant fold increase (Escherichia coli; Ames test; WP2 uvrA pKM101; 0.31 µg/well, with S9; reference: vehicle): 1
N#C[C@@H]1CCCN1C(=O)CNC(=O)c1ccnc2ccc(OCCCN3CCN(C(=O)CCc4ccc5c(c4)CN4CCN(Cc6cc(CCC(=O)O)ccc6O)CC(=O)[O][Al-]([18F])([O]C(=O)C4)[O]5)CC3)cc12 (stereo partly drawn)  tracer uptake (U-87 MG tumour model; host not given, bone; 2 h, tumour-bearing): 9.3 %ID/g
Cc1ccc(Nc2n[nH]c3nc(-c4ccccn4)nc(N)c23)cc1  CC50 (HeLa Ohio; 72 h): > 158 µM
COc1cccc(OC)c1-c1cc(C(=O)NC2(C(=O)O)C3CC4CC(C3)CC2C4)nn1-c1ccc(C(=O)N(C)CCCN(C)CCCN(C)C(=O)[C@H](CCCCNC(=O)[C@H](CC(C)C)NC(=O)C2OC2C(=O)O)NC(=O)CN2CCN(CC(=O)[O-])CCN(CC(=O)[O-])CCN(CC(=O)[O-])CC2)cc1C(C)C.[177Lu+3] (mixture of isomers)  tracer uptake (HT-29 tumour model; host not given, stomach; 24 h, tumour-bearing): 0.37 %ID/g
O=C1NC2(CC2)COc2ncc(F)cc2[C@H]2COCCN2c2ccn3ncc1c3n2  revertant colonies (Salmonella typhimurium; Ames test; TA1535; 1500 µg/plate, 48 h, with: without S9): 8 ± 2 revertants/plate
CC[C@H](C)[C@@H]1NC(=O)[C@H](Cc2ccc(O)cc2)NC(=O)CCCSC[C@@H](C(=O)N(CC(=O)N[C@@H](CC(C)C)C(=O)NCC(N)=O)Cc2ccc(F)cc2)NC(=O)[C@H](CC(N)=O)NC(=O)[C@H](CCC(N)=O)NC1=O  severe adverse events (human; intranasal, 400 µg repeated doses): 0%
CN(C)C=Nc1nc(-c2ccccc2)nc2c1c(Nc1ccc(F)cc1)nn2C  CC50 (HeLa Ohio; 72 h): > 128 µM
CN(Cc1ccccc1)C(=O)CN1CCN(CC(=O)[O-])CCN(Cc2cccc(C(=O)[O-])n2)CC1.[177Lu+3]  tracer uptake (mouse, spleen; intravenous, 1 h): 0.33 %ID/g
C=C(NC(=O)c1csc(-c2nc3c(cc2O)-c2nc(cs2)C(=O)NC(C(C)O)C(=O)NC(=C(C)OC)c2nc(cs2)C(=O)NC2c4nc(cs4)C(=O)NC(COC(=O)c4c5c6c(cccc6n4O)COC(=O)C(OC4CC(C)(O)C(N(C)C)C(C)O4)C2OC5)c2nc-3cs2)n1)C(N)=O (stereo not drawn)  AUC(0-t) (Sprague-Dawley rats, female, plasma; intravenous infusion, 6 mg/kg, day 7, multiple dosing): 1630 ng·h/mL
Nc1nc(-c2ccccc2C(F)(F)F)nc2[nH]nc(Nc3ccccc3)c12  CC50 (HeLa Ohio; 72 h): 1.1 µM
O=C(Nc1cc(-c2ccnc3[nH]ccc23)c(Cl)cn1)[C@H]1CCC[C@@H](NC(=O)C(F)(F)F)C1  Papp (P-glycoprotein (MDR1); MDCK-MDR1 cells; apical to basolateral): 17 ×10⁻⁶ cm/s
N#C[C@@H]1CC(F)(F)CN1C(=O)CNC(=O)c1ccnc2c(NC(=O)[C@@H](N)CCCCNC(=O)CCOCCOCCOCCOCCOCCOCCNC(=O)CN3CCN(CC(=O)[O-])CCN(CC(=O)[O-])CCN(CC(=O)[O-])CC3)cccc12.[177Lu+3]  tracer uptake (U-87 MG tumour model; host not given, muscle; 4 h, tumour-bearing): 0.2 %ID/g
Nc1nc(-c2ccccc2)nc2[nH]nc(Nc3ccc(F)cc3)c12  CC50 (HeLa Ohio; 72 h): 138 µM
N#C[C@@H]1CC(F)(F)CN1C(=O)CNC(=O)c1ccnc2c(NC(=O)CCOCCOCCOCCOCCOCCOCCNC(=O)[C@H](CCCCNC(=O)CN3CCN(CC(=O)[O-])CCN(CC(=O)[O-])CCN(CC(=O)[O-])CC3)NC(=O)CCCc3ccc(I)cc3)cccc12.[177Lu+3]  tracer uptake (U-87 MG tumour model; host not given, stomach; 24 h, tumour-bearing): 0.19 %ID/g
CN(C)c1nc(-c2ccccc2)nc2[nH]nc(Nc3ccc(F)cc3)c12  CC50 (HeLa Ohio; 72 h): > 144 µM
O=C([O-])CN1CCN(CC(=O)[O-])CCN(Cc2cccc(C(=O)[O-])n2)CC1.[18F-].[Sc+3]  tracer uptake (mouse, kidney; intravenous, 1 h): 3.16 %ID/g

Repeated from above:
Nc1nc(-c2ccccc2)nc2[nH]nc(Nc3ccc(F)cc3)c12  CC50 (HeLa Ohio; 72 h): 138 µM
N#C[C@@H]1CC(F)(F)CN1C(=O)CNC(=O)c1ccnc2c(NC(=O)CCOCCOCCOCCOCCOCCOCCNC(=O)[C@H](CCCCNC(=O)CN3CCN(CC(=O)[O-])CCN(CC(=O)[O-])CCN(CC(=O)[O-])CC3)NC(=O)CCCc3ccc(I)cc3)cccc12.[177Lu+3]  tracer uptake (U-87 MG tumour model; host not given, stomach; 24 h, tumour-bearing): 0.19 %ID/g
CN(C)c1nc(-c2ccccc2)nc2[nH]nc(Nc3ccc(F)cc3)c12  CC50 (HeLa Ohio; 72 h): > 144 µM
